Assay results from different studies.
Protocols differ between the studies behind these lines. “And” joins repeats or separate records; there may be more than shown.
HCK: Tyrosine-protein kinase HCK (HCK, Homo sapiens, UniProt P08631)
HCK Y522F: Tyrosine-protein kinase HCK (HCK, Homo sapiens, UniProt P08631, Y522F)

COc1c(OCCCN2CCOCC2)ccc2c1N=C(NC(=O)c1cnc(N)nc1)N1CCN=C21  remaining activity (HCK; kinase activity, inhibitor; 1 µM; relative to: untreated control): 98%
CN1CCN(Cc2ccc(-c3ccc(CO[C@H]4CCC[C@@H]4NC(=O)c4cc(-c5cnn(C)c5)cnc4N)cc3)cc2)CC1  inhibition (HCK; enzyme activity, inhibitor; 0.1 µM): 7%
C=CC(=O)N1CCCC(n2c(=O)c3ncccc3n(Cc3ccc(Oc4ccccc4)cc3)c2=O)C1 (stereo not shown)  remaining binding (HCK; cell-free assay, competition with immobilised ligand; 1 µM): 99%
COc1c(Cl)cccc1Nc1c(-c2ccncc2C#C[C@@]2(C)CCCN2C(=O)/C=C/CN(C)C)[nH]c2c1C(=O)NCC2  remaining binding (HCK; cell-free assay, competition with immobilised ligand; 3 µM): 88%
Cc1cnc2nc1Nc1cccc(c1)COC/C=C/COCc1cc(ccc1OCCN1CCOCC1)N2  remaining binding (HCK; binding; 0.1 µM): 73%
Nc1ncnc2c1c(-c1ccc(Oc3ccccc3)cc1)nn2C1CCCC1  kinase retained (HCK Y522F; SH3 domain accessibility, polyproline peptide pull-down; 5 µM): 0%
C=CC(=O)Nc1cccc(-c2cnc3[nH]cc(C(=O)NC(C)(C)C)c3n2)c1  inhibition (HCK; kinase activity; 0.1 µM): 13% and 7%
NC(=O)[C@@H](O)C[C@H]1CCc2sc3ncnc(O[C@H]4CC[C@H](N5CCOCC5)CC4)c3c21  inhibition (HCK; enzyme activity, inhibitor; 10 µM): 43%
Cc1cccc(O[C@H]2CCC[C@@H](C(C)CNCc3ccncc3)C2)c1 (relative stereo)  inhibition (HCK; cell-free assay; 10 µM): -3%
Nc1ncc2c(n1)-c1c([nH]c3ccc(C4=CCOCC4)cc13)CCC2  remaining binding (HCK; binding, competition with immobilised ligand; 1 µM): 100%
CC(C)n1nc(-c2ccc3cc(OCc4ccccc4)ccc3c2)c2c(N)ncnc21  kinase retained (HCK Y522F; SH3 domain accessibility, polyproline peptide pull-down; 5 µM): 0%
CCN1CCN(Cc2ccc(NC(=O)c3ccc(C)c(NC(=O)c4cncc(-c5cccs5)c4)c3)cc2C(F)(F)F)CC1  remaining binding (HCK; binding, competition with immobilised ligand; 1 µM): 0.1%
C=CC(=O)N1Cc2nc(-c3cc(-c4cc(Cl)cnc4Cl)c(F)cc3F)n(-c3ccncn3)c2C1  inhibition (HCK; cell-free assay; 1 µM): 4.7%
CNC1C[S+]2CC[S+]3CC[S+](C1)[Ru-4]321([N]=C=S)[n]2c3ccc(OC)cc3c3c4c(c5cc(F)c[n+]1c5c32)C(=O)NC4=O (stereo not shown)  remaining binding (HCK; KinomeScan; 0.1 µM; relative to: untreated): 85%
C[C@H]1CN(C(=O)c2cn(-c3ccnc(N)n3)c3cc(C#CC4(O)CCCCC4)ccc23)CCN1  inhibition (HCK; enzyme activity, inhibitor, FRET; 1 µM): 9%
COc1ccc(NC(=O)Nc2ccc3c(c2)C(=O)N(C(C)CO)CC(C)C(CN(C)Cc2ccc4c(c2)OCO4)O3)cc1 (stereo not shown)  remaining activity (HCK; kinase activity, KinaseProfiler; 0.03 µM, species human; relative to: control): 94%

A few entries again:
CC(C)n1nc(-c2ccc3cc(OCc4ccccc4)ccc3c2)c2c(N)ncnc21  kinase retained (HCK Y522F; SH3 domain accessibility, polyproline peptide pull-down; 5 µM): 0%
C=CC(=O)Nc1cccc(-c2cnc3[nH]cc(C(=O)NC(C)(C)C)c3n2)c1  inhibition (HCK; kinase activity; 0.1 µM): 13% and 7%
